Measured values pooled from the literature.
Compare with care: the assays were run in different laboratories. ± marks the error that the study gave.

For `C[C@@]1(c2cc(NC(=O)c3ccc(C#N)cn3)ccc2F)C=CSC(N)=N1`, “apparent clearance CL/F” read 10.3 L/h (elderly humans, both sexes, plasma; oral, 10 mg single dose, mean).
`COC(=O)N[C@H](C(=O)N1CCC[C@H]1c1nc(-c2ccc(-c3ccc(-c4c[nH]c([C@@H]5CCCN5C(=O)[C@@H](NC(=O)OC)C(C)C)n4)cc3)cc2)c[nH]1)C(C)C` — result for “apparent volume of distribution”: 65.2 L (population PK base model; human; oral, dose not given).
Under “apparent clearance at steady state”, `C[C@@H](Oc1ccc(S(C)(=O)=O)cc1C(=O)N1C[C@@H]2C[C@]2(c2cc(C(F)(F)F)on2)C1)C(F)(F)F` is recorded as 76.6 mL/min (young healthy humans, plasma; oral, 25 mg once daily, multiple dosing).
`C=CC(=O)N(C)CCOc1c(N)ncnc1-c1cc(F)cc(NC(=O)c2ccc(C3CC3)cc2F)c1C` — result for “apparent clearance CL/F”: 564 L/h (human, whole blood; oral, 600 mg, single ascending dose).
`O=C(Nc1nc2cccc(-c3ccc(CN4CCS(=O)(=O)CC4)cc3)n2n1)C1CC1` — result for “apparent central volume”: 105 L (population PK SIR median; human; oral, dose not given).
Under “apparent clearance (CL/F)”, `Cc1nc(Nc2ncc(C(=O)Nc3c(C)cccc3Cl)s2)cc(N2CCN(CCO)CC2)n1` is recorded as 2500 ± 605 mL/min/m² (human patients; 85 mg/m^2, day 42).
`C#C[C@]1(CO)O[C@@H](n2cnc3c(N)nc(F)nc32)C[C@@H]1O`: “apparent volume of distribution (Vz/F)” 2230 L (human, plasma; oral, 30 mg single dose, fed).
Under “apparent volume Vz/F”, `Cn1cc(-c2cn3nccc3c(-c3cnn([C@]4(CC#N)C[C@@H](C#N)C4)c3)n2)cn1` is recorded as 903 L (healthy humans fasted, plasma; 30 mg single dose, geometric mean).
Under “apparent clearance (CL/F)”, `CNC(=O)c1c(C)oc2cc(Oc3ncnc4cc(OC)c(OC)cc34)ccc12` is recorded as 0.794 L/h (population PK model; human; 70 kg body weight).
Under “apparent volume of distribution (Vd/F)”, `O=C(O)CCC(=O)O.[2H]C([2H])([2H])Oc1cc(C)c2[nH]ccc2c1CN1CC[C@@H](C2CC2)C[C@H]1c1ccc(C(=O)O)cc1` is recorded as 67.2 L (healthy humans, fasted, plasma; oral, 200 mg, single dose).
Under “apparent unbound oral clearance”, `NC[C@@]1(CC(=O)O)[C@@H]2CC[C@H]3C[C@@H]2[C@@H]1C3` is recorded as 12.4 L/h (humans with normal renal function, plasma; geometric mean).
`C=CC(=O)Nc1cc(Nc2ncc(C(=O)OC(C)C)c(-c3cn(C)c4ccccc34)n2)c(OC)cc1N(C)CCN(C)C` — result for “apparent oral clearance”: 111 L/h (healthy human volunteers; oral, capsule C vs capsules A and B).
`C=CC(=O)NC1CCN(c2ncc3ncnc(Nc4ccc(Oc5ccc6c(c5)ncn6C)c(C)c4)c3n2)CC1`: “apparent oral clearance” 24.9 L/h (human; oral, 60 mg single dose, geometric mean, together with: carbamazepine).
For `CCCCCCCCCCCCCCCC(=O)N[C@@H](CCC(=O)NCCCC[C@@H]1NC(=O)[C@H]([C@@H](C)CC)NC(=O)[C@@H](NC(=O)[C@@H]2CCCN2C(=O)[C@H](Cc2ccccc2)NC(=O)[C@H](Cc2c[nH]cn2)NC(=O)[C@@H](NC(=O)[C@H](CC(=O)O)NC(=O)CC(C)C)[C@@H](C)O)CSSC[C@@H](C(=O)N[C@@H](CCCCN)C(N)=O)NC(=O)CNC(=O)[C@H](CCCCN)NC(=O)[C@H](CO)NC(=O)[C@H](CCCNC(=N)N)NC(=O)[C@@H]2CCCN2C(=O)[C@H](CCC(=O)O)NC(=O)[C@H](Cc2ccccc2)NC1=O)C(=O)O`, “apparent clearance CL/F” read 1.54 ± 0.508 L/h (healthy human, plasma; subcutaneous, 20 mg, single dose, aqueous formulation).
Under “apparent oral clearance”, `NC(=S)NN=Cc1ncccc1N` is recorded as 88 L/h (human non-smokers, plasma; oral, geometric mean, total).
Under “apparent volume of distribution”, `C[C@H](Cn1cnc2c(N)ncnc21)OCP(=O)(O)O` is recorded as 2340 L (population PK model; human, plasma; oral, dose not given, reduced model bootstrap median).
For `NCC(=O)Nc1cncc(-c2nn3c(=O)cc(N4CCNCC4)nc3s2)c1`, “apparent central volume (Vc/F)” read 50.7 L (population PK model; human; subcutaneous, dose not given, geometric mean).
